# Values quoted from earlier work that unrelated publications cite.
# “And” joins repeats or separate records; there may be more than shown. ± gives the spread as reported.
# UniProt Q9P289, sequence (whole entry, looked up): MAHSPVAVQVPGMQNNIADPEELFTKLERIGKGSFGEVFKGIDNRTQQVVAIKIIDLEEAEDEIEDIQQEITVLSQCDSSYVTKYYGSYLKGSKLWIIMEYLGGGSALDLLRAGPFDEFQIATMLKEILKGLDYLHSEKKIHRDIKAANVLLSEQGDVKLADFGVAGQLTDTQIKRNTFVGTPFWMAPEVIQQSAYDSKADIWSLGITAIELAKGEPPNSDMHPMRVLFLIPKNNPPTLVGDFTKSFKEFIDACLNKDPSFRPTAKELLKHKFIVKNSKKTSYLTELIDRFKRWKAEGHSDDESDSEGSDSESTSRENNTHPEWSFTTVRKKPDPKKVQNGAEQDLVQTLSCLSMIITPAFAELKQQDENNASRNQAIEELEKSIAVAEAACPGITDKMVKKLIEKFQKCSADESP
SMILES,target or system,test,test system,conditions,how to read,quantity,value
C/C(=N\CCO)c1c(O)c2ccccc2oc1=O,HL-60,,,,,cytotoxicity,590 µM
CC(=O)O[C@H]1C(=O)[C@@]2(C)[C@H]([C@H](OC(=O)c3ccccc3)[C@]3(O)C[C@H](OC(=O)[C@H](O)[C@@H](NC(=O)c4ccccc4)c4ccccc4)C(C)=C1C3(C)C)[C@]1(OC(C)=O)CO[C@@H]1C[C@@H]2O,CFPAC-1,cytotoxicity,,,,IC50,0.06 µM
C[C@@H](c1ncncc1F)[C@](O)(Cn1cncn1)c1ccc(F)cc1F,HepG2,mitochondrial membrane potential,,"concentration not given, Tox21",,activity outcome,inactive
Nc1ccccc1NC(=O)c1ccc(CNC(=O)OCc2cccnc2)cc1,A2780cisR,"cell viability, MTT",,72 h,,IC50,5.57 ± 0.43 µM
COc1cc(-c2oc3ccc(CCOC(C)=O)cc3c2C=O)ccc1O,tumour cell lines,cytotoxicity,,,,IC50,5 to 18 µM
Nc1cc(C(F)(F)F)c(-c2nc(N3CCOCC3)nc(N3CCOCC3)n2)cn1,"STK26 (Homo sapiens, UniProt Q9P289)",enzyme activity,,10 µM,baseline: untreated,remaining activity,56%
COc1cc2c(cc1OC)C(c1c[nH]c3ncccc13)NCC2 (stereo not drawn),COLO 320 ABCB1-resistant colon,cytotoxicity,,,,IC50,> 100 µM
N#C/C=C/c1ccc2c(S(=O)(=O)n3nc(Nc4ccc(C#N)c(Cl)c4)nc3N)cccc2c1,TZM-bl,cytotoxicity,,,,CC50,4.8 µM
CCCCC(C)C(=O)O (stereo not drawn),mouse 3T3 fibroblasts,cell viability,,unbound medium concentration,,IC10,6550 µM
Cc1ccc(O)c([C@H](CCN(C(C)C)C(C)C)c2ccccc2)c1,HepG2,mitochondrial membrane potential,,"concentration not given, Tox21",,mitochondrial toxicity,active
CN(C)C/C=C/C(=O)Nc1cc2c(Nc3ccc(F)c(Cl)c3)ncnc2cc1O[C@H]1CCOC1,Caco-2,,,300 µM,,Papp B to A,6.99 ± 0.8 ×10⁻⁶ cm/s
CC1(C)S[C@@H]2[C@H](NC(=O)[C@H](N)c3ccccc3)C(=O)N2[C@H]1C(=O)O,Klebsiella pneumoniae,,clinical isolate RKI-No_544/13,,,MIC,> 16 µg/mL
NC1=NCC2c3ccccc3Cc3ccccc3N12 (stereo not drawn),HepG2,,,concentration not given,,mitochondrial membrane potential,inactive
C/C(=N\Cc1ccccc1)c1c(O)c2ccccc2oc1=O,HL-60,,,,,cytotoxicity,801 µM
CCC(CC)COC(=O)[C@H](C)N[P@](=O)(OC[C@H]1O[C@@](C#N)(c2ccc3c(N)ncnn23)[C@H](O)[C@@H]1O)Oc1ccccc1,Caco-2,cytotoxicity,,,,CC50,> 100 µM
COc1cccc2c1C(=O)c1c(O)c3c(c(O)c1C2=O)C[C@@](O)(C(=O)CO)C[C@@H]3O[C@H]1C[C@H](N)[C@H](O)[C@H](C)O1,COLO 205,cytotoxicity,,,,IC50,0.81 µM and 0.84 µM and 0.89 µM
CCCCCC(CCC)C(=O)O (stereo not drawn),mouse 3T3 fibroblasts,cell viability,,unbound medium concentration,,IC10,452 µM
C[C@H]1COCCN1c1nc(-c2cnc(N)cc2C(F)F)nc(N2CCOCC2)n1,HCT-116,,,,,GI50,0.574 µM
CS(=O)(=O)c1ccc(Oc2cc(F)cc(C#N)c2)c2c1[C@H](O)[C@H](F)[C@@H]2F,HepG2,mitochondrial membrane potential,,"concentration not given, Tox21",,activity outcome,inactive
CCS(=O)(=O)Nc1ccc(Oc2ccc(F)cc2F)c(-c2cn(C)c(=O)c3[nH]ccc23)c1,megakaryocyte colony-forming units,colony formation,,,,EC50,0.003 µM
CC(C)NCC(O)COc1cccc2ccccc12 (stereo not drawn),Caco-2,,,,,permeability (Papp),15.7 ×10⁻⁶ cm/s
[N-]=[N+]=N[C@]1(CO)O[C@@H](n2ccc(N)nc2=O)[C@@H](F)[C@@H]1O,PBMC,,,,,CC50,3.03 µM
COc1c(N2CCNC(C)C2)c(F)cc2c(=O)c(C(=O)O)cn(C3CC3)c12 (stereo not drawn),HepG2,mitochondrial membrane potential,,"concentration not given, Tox21",,activity outcome,inactive
CNC(C)C1CCC(N)C(OC2C(N)CC(N)C(OC3OCC(C)(O)C(NC)C3O)C2O)O1 (stereo not drawn),Klebsiella pneumoniae,,clinical isolate RKI-No_328/16,,,MIC,4 µg/mL
Cc1nccn1CC1CCc2c(c3ccccc3n2C)C1=O (stereo not drawn),HepG2,mitochondrial membrane potential,,"concentration not given, Tox21",,activity outcome,inactive
Cc1nc(-c2nnc3n2CCN(C(=O)c2ccc(-c4cccs4)cc2)[C@@H]3C)cs1,Caco-2,,,0.1% BSA,,Papp B to A,52.9 ×10⁻⁶ cm/s
CC(F)(F)c1cc(F)ccc1-c1sc2cc(O)ccc2c1Oc1ccc(/C=C/C(=O)O)cc1,human hepatocytes,,,concentration not given,baseline: positive control,CYP3A4 mRNA induction,< 10%
CCCCCCCC1(OC)OC(=O)c2cc(OC)cc(OC)c21 (stereo not drawn),B16-F10,cytotoxicity,,,,IC50,95.8 µg/mL
CCN1CCN(C(=O)c2ccc(-n3nc(-c4cccnc4)c4c3-c3sc(NC(C)=O)nc3CC4)cc2)CC1,Caco-2,,,,,efflux ratio,158
O=C1Oc2ccc3ccccc3c2C1c1c[nH]c2ccccc12 (stereo not drawn),COLO 205,cell viability,,,,IC50,> 100 µM
COc1ccc(CNc2nc(-c3ccc(C(=O)O)cc3)nc3sc4ccccc4c23)cc1Cl,Caco-2,,,,,efflux ratio,0.6 to 1.6
O=C(O[C@@H]1COC(=O)c2cc(O)c(O)c(O)c2-c2c(cc(O)c(O)c2O)C(=O)O[C@H]1[C@@H]1OC(=O)c2cc(O)c(O)c(O)c2-c2c(O)c(O)c(O)c3c2C(=O)O[C@H]1[C@@H]3O)c1cc(O)c(O)c(O)c1,Chang liver cells,cytotoxicity,,,,IC50,> 37.5 µg/mL
CC[C@H]1OC(=O)[C@H](C)C(=O)[C@H](C)[C@@H](O[C@@H]2O[C@H](C)C[C@H](N(C)C)[C@H]2O)[C@](C)(OC)C[C@@H](C)C(=O)[C@H](C)[C@H]2N(CCCCn3cnc(-c4cccnc4)c3)C(=O)O[C@]12C,HepG2,mitochondrial membrane potential,,"concentration not given, Tox21",,activity outcome,inactive
CN(C)c1ccc(C(=O)N(CC(=O)NCc2ccccc2)Cc2ccc(C(=O)Nc3ccccc3N)cc2)cc1,CAL-27,"cell viability, MTT",,72 h,,IC50,2 ± 0.15 µM
O=[N+]([O-])c1cn2c(n1)OC[C@@H](OCc1ccc(OC(F)(F)F)cc1)C2,HepG2,mitochondrial membrane potential,,"concentration not given, Tox21",,activity outcome,inactive
C[C@@H]1O[C@@H](OC[C@H]2O[C@@H](Oc3c(-c4ccc(O)c(O)c4)oc4cc(O)cc(O)c4c3=O)[C@H](O)[C@@H](O)[C@@H]2O)[C@H](O)[C@H](O)[C@H]1O,Hep G2,,,,,CC50,322 µg/mL

# A few entries again:
SMILES,target or system,test,test system,conditions,how to read,quantity,value
COc1cc2c(cc1OC)C(c1c[nH]c3ncccc13)NCC2 (stereo not drawn),COLO 320 ABCB1-resistant colon,cytotoxicity,,,,IC50,> 100 µM
Nc1cc(C(F)(F)F)c(-c2nc(N3CCOCC3)nc(N3CCOCC3)n2)cn1,"STK26 (Homo sapiens, UniProt Q9P289)",enzyme activity,,10 µM,baseline: untreated,remaining activity,56%
Cc1nc(-c2nnc3n2CCN(C(=O)c2ccc(-c4cccs4)cc2)[C@@H]3C)cs1,Caco-2,,,0.1% BSA,,Papp B to A,52.9 ×10⁻⁶ cm/s
CCN1CCN(C(=O)c2ccc(-n3nc(-c4cccnc4)c4c3-c3sc(NC(C)=O)nc3CC4)cc2)CC1,Caco-2,,,,,efflux ratio,158
N#C/C=C/c1ccc2c(S(=O)(=O)n3nc(Nc4ccc(C#N)c(Cl)c4)nc3N)cccc2c1,TZM-bl,cytotoxicity,,,,CC50,4.8 µM
CC1(C)S[C@@H]2[C@H](NC(=O)[C@H](N)c3ccccc3)C(=O)N2[C@H]1C(=O)O,Klebsiella pneumoniae,,clinical isolate RKI-No_544/13,,,MIC,> 16 µg/mL
